Published values of several laboratories.
Compare with care: the assays were run in different laboratories.
IRF7 S471D/S472D/S475D/S476D/S477D/S483D/S484D/S487D full length, phosphomimetic: Interferon regulatory factor 7, full length, phosphomimetic (IRF7, Homo sapiens, UniProt Q92985, residues 1-503, S471D/S472D/S475D/S476D/S477D/S483D/S484D/S487D)
UniProt Q92985, sequence (whole entry, unmodified, looked up): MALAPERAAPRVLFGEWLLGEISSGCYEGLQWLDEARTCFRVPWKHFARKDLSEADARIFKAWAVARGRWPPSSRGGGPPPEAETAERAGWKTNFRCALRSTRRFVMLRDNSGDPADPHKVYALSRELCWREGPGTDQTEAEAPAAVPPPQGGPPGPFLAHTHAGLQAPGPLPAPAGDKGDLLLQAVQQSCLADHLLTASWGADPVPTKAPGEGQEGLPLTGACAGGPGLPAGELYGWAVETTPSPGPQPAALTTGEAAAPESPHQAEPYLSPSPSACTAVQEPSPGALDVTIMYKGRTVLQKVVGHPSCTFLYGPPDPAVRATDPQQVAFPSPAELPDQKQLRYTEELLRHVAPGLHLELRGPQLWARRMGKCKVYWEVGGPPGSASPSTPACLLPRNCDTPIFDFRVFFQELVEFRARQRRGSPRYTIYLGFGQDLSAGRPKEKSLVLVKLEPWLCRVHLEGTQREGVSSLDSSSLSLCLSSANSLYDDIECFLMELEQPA
SALL4 full length isoform A: Sal-like protein 4, full length isoform A (SALL4, Homo sapiens, UniProt Q9UJQ4, residues 1-1053)
UniProt Q9UJQ4, sequence (whole entry, looked up): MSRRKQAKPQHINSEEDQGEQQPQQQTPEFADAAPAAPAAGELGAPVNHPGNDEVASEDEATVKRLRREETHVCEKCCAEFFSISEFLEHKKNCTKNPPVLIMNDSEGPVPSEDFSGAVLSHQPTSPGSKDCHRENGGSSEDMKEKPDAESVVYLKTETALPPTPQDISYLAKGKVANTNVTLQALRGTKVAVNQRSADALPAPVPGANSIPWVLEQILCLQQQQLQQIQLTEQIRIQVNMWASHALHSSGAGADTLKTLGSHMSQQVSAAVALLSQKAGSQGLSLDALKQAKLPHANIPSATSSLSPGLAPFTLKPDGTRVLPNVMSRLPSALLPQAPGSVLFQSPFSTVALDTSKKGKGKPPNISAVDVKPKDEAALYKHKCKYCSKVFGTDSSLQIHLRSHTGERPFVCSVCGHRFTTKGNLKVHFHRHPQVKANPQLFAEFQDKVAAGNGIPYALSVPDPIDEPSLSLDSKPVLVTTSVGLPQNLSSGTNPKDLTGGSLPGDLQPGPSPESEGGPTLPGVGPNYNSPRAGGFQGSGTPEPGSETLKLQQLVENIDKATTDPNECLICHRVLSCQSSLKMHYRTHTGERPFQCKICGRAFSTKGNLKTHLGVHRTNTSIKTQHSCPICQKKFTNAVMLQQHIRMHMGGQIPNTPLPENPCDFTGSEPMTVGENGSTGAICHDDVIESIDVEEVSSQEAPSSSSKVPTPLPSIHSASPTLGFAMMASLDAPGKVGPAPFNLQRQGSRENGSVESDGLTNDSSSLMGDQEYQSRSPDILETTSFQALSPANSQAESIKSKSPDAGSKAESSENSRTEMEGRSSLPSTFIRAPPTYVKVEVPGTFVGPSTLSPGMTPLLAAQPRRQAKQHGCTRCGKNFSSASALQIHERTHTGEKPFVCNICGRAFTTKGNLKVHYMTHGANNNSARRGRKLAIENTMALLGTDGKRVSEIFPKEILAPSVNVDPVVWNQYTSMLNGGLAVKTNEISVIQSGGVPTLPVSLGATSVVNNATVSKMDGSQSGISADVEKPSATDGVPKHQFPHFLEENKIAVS
RBFOX2 RRM domain, GST-SBP tag: RNA binding protein fox-1 homolog 2, RRM domain, GST-SBP tag (RBFOX2, Homo sapiens, UniProt O43251-10, residues 100-194)

GCCTAGCACGACGGACTGCTAGTGCTGACGTGCTAGGTCTTGATTCGCTTGACGCTGCTG
fitted relative affinity (IRF7 S471D/S472D/S475D/S476D/S477D/S483D/S484D/S487D full length, phosphomimetic; protein-binding microarray; double-stranded DNA, one strand shown, in vitro; 2200 nM top, 60-bp whole probe, with: salmon DNA 0.4 mg/ml; reference: random background probes, higher = stronger binding): -0.263 z-score

AGTGTCCC
E-score (SALL4 full length isoform A; universal PBM; double-stranded DNA, one strand shown, in vitro; 600 nM, 8-mer, flanks averaged, mean of replicates; higher = stronger binding): -0.246

GGGAGUUCUACAGUCCGACGAUCGGCCCUUCACGGUCCUGGAGGGAGGUGAGGCUGGCCUUGGAAGGCGUGCCCUGGAGAGGUCUUGGGUGAAAACUUGACCUUGAAGAAACCAAUCACAAAAGCGGCGUUGGUGGAAUUCUCGGGUGCCAA
RBNS enrichment (R) (RBFOX2 RRM domain, GST-SBP tag; RNA Bind-n-Seq; RNA, in vitro; 365 nM, natural RNA segment, single round, ends assumed; reference: no-protein control, higher = stronger binding): 0.356

GCCTAGCACGATGGGCTACCTCTCTTAGAGTGCTAGGTCTTGATTCGCTTGACGCTGCTG
fitted relative affinity (IRF7 S471D/S472D/S475D/S476D/S477D/S483D/S484D/S487D full length, phosphomimetic; protein-binding microarray; double-stranded DNA, one strand shown, in vitro; 2200 nM top, 60-bp whole probe, with: salmon DNA 0.4 mg/ml; reference: random background probes, higher = stronger binding): -0.763 z-score

GGGAGUUCUACAGUCCGACGAUCUCCUUCCCAGCCCUACUGAAAAGCUUGUUUCUGGGGCCUCCUUCACGGAUUCAUAUGGUACCUUCCUUCUAAACUUGAGGAAGGCAUUUGUCUUCCGGCUGCUCAGGGCUUGGAAUUCUCGGGUGCCAA
RBNS enrichment (R) (RBFOX2 RRM domain, GST-SBP tag; RNA Bind-n-Seq; RNA, in vitro; 365 nM, natural RNA segment, single round, ends assumed; reference: no-protein control, higher = stronger binding): 4.63

PhoQ, residues 284 288 289 292 302 303 SASVAL
fold induction (PhoP, residues 12 14 15 18 19 NMSFL (Escherichia coli, UniProt P23836); Sort-seq, refers to: YFP reporter; E. coli; PhoQ-PhoP variant library, with: 10 µM Mg2+; reference: high Mg2+ state, higher = stronger signaling): 20.3

GTTATAAA
E-score (SALL4 full length isoform A; universal PBM; double-stranded DNA, one strand shown, in vitro; 600 nM, 8-mer, flanks averaged, mean of replicates; higher = stronger binding): 0.384

GGTTGGTGTGGTTGG (2'F-ANA at 1 3 5 9 10 11 12)
mean fluorescence intensity (Prothrombin, mature alpha-thrombin (F2, Homo sapiens, UniProt P00734); aptamer microarray, sandwich; DNA with 2'F-ANA, in vitro; 200 nM, whole 15-mer aptamer, many near background, with: Cy3 exosite-II aptamer, 400 nM; higher = stronger binding): 48.1 a.u.

A few entries again:
GGTTGGTGTGGTTGG (2'F-ANA at 1 3 5 9 10 11 12)
mean fluorescence intensity (Prothrombin, mature alpha-thrombin (F2, Homo sapiens, UniProt P00734); aptamer microarray, sandwich; DNA with 2'F-ANA, in vitro; 200 nM, whole 15-mer aptamer, many near background, with: Cy3 exosite-II aptamer, 400 nM; higher = stronger binding): 48.1 a.u.
